Results gathered from unrelated publications.
Several values in a cell are separate wells, animals, samples, runs or records. ± marks the error that the study gave.
HDAC6 ZnF-UBD domain: Protein deacetylase HDAC6, ZnF-UBD domain (HDAC6, Homo sapiens, UniProt Q9UBN7)
UniProt Q16774, sequence (whole entry, unmodified, looked up): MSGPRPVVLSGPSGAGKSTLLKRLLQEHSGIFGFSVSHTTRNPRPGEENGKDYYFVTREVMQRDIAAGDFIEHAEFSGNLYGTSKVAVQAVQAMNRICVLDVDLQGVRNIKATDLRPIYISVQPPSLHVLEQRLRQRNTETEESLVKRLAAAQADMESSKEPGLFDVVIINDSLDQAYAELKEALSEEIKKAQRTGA
UniProt Q9UBN7, sequence (whole entry, looked up): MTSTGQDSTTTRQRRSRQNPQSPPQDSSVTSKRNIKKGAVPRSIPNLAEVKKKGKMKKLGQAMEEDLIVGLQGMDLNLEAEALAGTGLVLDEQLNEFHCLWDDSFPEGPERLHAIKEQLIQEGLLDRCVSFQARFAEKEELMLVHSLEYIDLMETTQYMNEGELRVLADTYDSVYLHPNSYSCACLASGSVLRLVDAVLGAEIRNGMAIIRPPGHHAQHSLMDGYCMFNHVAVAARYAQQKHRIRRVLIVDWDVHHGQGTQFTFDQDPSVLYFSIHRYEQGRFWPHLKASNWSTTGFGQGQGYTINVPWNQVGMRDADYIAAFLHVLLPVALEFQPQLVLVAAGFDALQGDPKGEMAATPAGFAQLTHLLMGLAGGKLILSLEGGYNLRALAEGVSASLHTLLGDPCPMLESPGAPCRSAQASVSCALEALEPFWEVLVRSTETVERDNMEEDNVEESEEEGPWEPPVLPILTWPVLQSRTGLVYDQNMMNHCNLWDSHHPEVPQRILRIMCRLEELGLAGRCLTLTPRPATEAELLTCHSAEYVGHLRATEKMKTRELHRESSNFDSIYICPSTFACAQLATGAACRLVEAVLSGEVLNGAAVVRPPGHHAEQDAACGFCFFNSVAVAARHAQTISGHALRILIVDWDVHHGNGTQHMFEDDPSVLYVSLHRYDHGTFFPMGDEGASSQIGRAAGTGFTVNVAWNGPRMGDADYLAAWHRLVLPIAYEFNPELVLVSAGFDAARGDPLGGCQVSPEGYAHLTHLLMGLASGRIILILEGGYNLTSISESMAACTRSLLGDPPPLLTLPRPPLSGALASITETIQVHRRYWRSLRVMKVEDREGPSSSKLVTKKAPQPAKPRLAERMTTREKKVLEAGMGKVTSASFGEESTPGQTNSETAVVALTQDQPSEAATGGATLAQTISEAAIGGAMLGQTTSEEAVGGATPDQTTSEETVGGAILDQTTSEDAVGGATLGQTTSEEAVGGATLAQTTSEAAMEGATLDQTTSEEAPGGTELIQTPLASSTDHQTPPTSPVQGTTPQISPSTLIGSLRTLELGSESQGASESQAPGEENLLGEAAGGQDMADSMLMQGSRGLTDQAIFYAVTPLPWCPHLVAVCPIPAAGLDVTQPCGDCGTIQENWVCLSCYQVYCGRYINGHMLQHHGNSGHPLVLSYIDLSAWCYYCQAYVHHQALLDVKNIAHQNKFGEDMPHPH
UniProt Q13133, sequence (whole entry, looked up): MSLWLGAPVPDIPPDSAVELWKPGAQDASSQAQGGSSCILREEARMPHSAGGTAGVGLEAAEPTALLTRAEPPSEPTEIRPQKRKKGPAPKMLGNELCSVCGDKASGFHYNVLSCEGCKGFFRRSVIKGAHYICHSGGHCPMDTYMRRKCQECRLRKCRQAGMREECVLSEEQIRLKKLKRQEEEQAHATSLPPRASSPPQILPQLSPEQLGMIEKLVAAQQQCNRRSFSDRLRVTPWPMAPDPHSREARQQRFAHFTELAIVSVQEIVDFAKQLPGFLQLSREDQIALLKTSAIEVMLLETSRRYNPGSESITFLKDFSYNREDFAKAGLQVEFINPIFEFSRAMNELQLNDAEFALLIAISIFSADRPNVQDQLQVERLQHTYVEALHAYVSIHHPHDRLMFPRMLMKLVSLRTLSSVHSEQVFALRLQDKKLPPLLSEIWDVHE
UniProt P0AC13, sequence (whole entry, looked up): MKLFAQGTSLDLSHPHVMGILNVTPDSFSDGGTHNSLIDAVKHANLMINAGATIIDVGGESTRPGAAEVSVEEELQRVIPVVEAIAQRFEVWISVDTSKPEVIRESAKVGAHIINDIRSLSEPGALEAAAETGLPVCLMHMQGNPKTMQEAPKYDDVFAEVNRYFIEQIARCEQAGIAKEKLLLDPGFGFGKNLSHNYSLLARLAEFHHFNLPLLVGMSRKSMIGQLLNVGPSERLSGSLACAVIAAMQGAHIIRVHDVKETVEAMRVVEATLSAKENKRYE
UniProt P00519, sequence (whole entry, unmodified, looked up): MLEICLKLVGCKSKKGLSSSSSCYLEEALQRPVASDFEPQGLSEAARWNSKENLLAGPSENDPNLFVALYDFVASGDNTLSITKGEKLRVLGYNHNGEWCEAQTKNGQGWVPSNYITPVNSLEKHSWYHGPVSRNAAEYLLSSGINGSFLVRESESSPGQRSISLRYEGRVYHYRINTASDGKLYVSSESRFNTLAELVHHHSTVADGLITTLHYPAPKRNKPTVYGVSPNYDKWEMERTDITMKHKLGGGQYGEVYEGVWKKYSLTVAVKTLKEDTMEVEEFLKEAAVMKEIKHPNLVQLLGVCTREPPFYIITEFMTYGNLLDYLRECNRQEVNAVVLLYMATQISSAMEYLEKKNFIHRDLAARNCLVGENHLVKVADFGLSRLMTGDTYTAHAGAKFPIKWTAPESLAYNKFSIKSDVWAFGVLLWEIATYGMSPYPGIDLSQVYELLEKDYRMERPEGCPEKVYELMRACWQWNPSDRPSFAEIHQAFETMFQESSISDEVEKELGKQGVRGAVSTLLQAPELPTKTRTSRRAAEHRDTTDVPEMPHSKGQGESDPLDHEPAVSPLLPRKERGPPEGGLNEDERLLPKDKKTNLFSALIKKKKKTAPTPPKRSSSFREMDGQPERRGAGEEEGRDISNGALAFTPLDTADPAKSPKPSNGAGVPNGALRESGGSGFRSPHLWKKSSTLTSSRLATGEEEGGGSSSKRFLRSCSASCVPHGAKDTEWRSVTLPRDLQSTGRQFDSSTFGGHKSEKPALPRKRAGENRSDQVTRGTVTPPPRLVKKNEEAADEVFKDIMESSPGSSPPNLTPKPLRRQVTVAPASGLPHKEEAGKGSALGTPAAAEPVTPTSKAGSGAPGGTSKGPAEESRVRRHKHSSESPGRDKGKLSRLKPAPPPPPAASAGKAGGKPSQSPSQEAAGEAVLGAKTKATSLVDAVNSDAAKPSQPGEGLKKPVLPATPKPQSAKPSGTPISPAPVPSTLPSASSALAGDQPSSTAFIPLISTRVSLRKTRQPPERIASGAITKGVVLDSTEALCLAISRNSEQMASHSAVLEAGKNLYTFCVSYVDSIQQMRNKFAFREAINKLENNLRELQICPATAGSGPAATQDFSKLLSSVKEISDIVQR
UniProt Q9UH17, sequence (whole entry, looked up): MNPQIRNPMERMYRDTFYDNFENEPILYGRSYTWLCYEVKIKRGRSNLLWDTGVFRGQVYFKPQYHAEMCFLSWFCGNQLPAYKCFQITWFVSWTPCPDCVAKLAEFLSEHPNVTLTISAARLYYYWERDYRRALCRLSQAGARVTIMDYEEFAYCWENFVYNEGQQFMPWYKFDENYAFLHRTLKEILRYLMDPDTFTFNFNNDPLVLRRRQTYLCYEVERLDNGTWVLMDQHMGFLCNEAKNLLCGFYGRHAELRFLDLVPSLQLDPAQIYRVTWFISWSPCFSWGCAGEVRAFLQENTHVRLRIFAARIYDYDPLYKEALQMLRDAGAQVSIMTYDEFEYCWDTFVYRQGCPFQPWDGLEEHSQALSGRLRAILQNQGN
UniProt P51575, sequence (whole entry, unmodified, looked up): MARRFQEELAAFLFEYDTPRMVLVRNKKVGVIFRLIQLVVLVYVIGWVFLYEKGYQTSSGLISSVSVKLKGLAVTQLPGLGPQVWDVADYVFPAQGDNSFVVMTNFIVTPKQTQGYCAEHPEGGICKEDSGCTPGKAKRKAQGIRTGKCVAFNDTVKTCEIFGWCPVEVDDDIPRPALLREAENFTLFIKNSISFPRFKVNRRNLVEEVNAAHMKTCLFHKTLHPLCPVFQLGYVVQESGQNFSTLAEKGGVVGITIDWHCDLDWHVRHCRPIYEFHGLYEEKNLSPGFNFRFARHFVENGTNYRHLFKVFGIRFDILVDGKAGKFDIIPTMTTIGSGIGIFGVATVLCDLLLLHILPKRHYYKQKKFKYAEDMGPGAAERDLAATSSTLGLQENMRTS
UniProt Q9I4X0, sequence (whole entry, looked up): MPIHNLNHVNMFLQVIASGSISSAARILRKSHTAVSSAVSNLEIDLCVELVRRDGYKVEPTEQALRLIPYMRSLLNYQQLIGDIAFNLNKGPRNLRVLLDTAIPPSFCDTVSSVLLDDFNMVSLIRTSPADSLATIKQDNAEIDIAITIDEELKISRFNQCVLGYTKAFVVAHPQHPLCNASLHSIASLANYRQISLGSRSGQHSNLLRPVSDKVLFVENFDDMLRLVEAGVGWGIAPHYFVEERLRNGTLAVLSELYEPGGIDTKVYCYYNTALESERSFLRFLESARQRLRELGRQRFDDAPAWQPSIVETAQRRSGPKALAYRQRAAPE
UniProt P02754, sequence (whole entry, looked up): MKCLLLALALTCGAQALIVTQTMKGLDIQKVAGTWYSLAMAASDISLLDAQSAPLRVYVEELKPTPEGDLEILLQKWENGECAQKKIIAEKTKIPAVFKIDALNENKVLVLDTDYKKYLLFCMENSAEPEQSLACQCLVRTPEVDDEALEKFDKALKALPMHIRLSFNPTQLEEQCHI
UniProt P25090, sequence (whole entry, looked up): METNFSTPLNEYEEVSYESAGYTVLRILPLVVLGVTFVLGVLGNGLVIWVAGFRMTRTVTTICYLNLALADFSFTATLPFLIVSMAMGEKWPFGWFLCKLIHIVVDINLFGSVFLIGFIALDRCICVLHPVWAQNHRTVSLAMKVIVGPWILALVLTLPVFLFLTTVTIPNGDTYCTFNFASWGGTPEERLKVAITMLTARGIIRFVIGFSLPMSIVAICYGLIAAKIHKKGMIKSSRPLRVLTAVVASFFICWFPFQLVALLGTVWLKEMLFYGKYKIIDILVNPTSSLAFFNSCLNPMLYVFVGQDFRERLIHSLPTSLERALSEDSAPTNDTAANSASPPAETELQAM

Compound | tested on | test | system | conditions | scale | measurement | result
O=C(O)CCC(=O)c1ccc(S(=O)(=O)N2CCCC2)cc1 | HDAC6 ZnF-UBD domain | – | – | – | – | Kd | 51.5 µM
Oc1ccccc1-c1n[nH]cc1-c1ccnc2ccccc12 | SAK1 (Candida albicans) | kinase binding, MIB/MS competition | Candida albicans lysate | 10 µM | relative to: DMSO | log2 fold change | -0.11
CCC(=O)NS(=O)(=O)c1ccc(-c2c(-c3ccccc3)noc2C)cc1 | Oxysterols receptor LXR-alpha (NR1H3, Homo sapiens, UniProt Q13133) | reporter gene, Gal4 hybrid reporter | – | 50 µM | relative to: vehicle | activation | 0.95 fold
Cn1cc(-c2ccc(-c3cncc(Cl)c3N3CCC4(CCNC4=O)CC3)cc2)cn1 | COLO 205 | gene expression, microarray, measured: SOX8 mRNA | – | concentration not given, 6 h | relative to: untreated cells | log2 fold change | 1.02
Cc1cc2ccccc2c2ccc3ccccc3c12 | Aryl hydrocarbon receptor (Danio rerio, UniProt Q9YGV3) | reporter gene, agonist, luciferase reporter | ZF-4 | 370.37 µM | relative to: vehicle control | fold change | 4.63
O=C(COP(=O)(O)O)[C@@H](O)[C@H](O)[C@H](O)COP(=O)(O)O | Cytoplasmic dynein 1 light intermediate chain 1 (DYNC1LI1, Homo sapiens, UniProt Q9Y6G9) | thermal proteome profiling | HepG2 cell lysate | concentration not given, 57 over 37 °C, mean | relative to: compound over control | thermal stability ratio | 0.657
Nc1nc2c(ncn2[C@@H]2O[C@H](COP(=O)(O)O)[C@@H](O)[C@H]2O)c(=O)[nH]1 | GUK1 (Homo sapiens, UniProt Q16774, S37P) | enzyme activity, NADH-coupled | – | 250 µM | – | reaction rate | 1.64 s⁻¹ and 0.884 s⁻¹ and 1.22 s⁻¹
CC(C)C[C@H](NC(=O)C[C@H](O)[C@H](CC(C)C)NC(=O)[C@H](Cc1c[nH]cn1)NC(=O)CNC(=O)[C@@H](NC(=O)[C@H](C)NC(=O)[C@H](Cc1c[nH]c2ccccc12)NC(=O)[C@H](CCC(N)=O)NC(=O)[C@@H](Cc1ccccc1)NC(=O)COCCOCCNC(=O)CN1CCN(CC(=O)O)CCN(CC(=O)O)CCN(CC(=O)O)CC1)C(C)C)C(N)=O [lutetium-177 labelled] | – | – | female BALB/c nu/nu mice, tumor | intravenous, 50 pmol, 1 h | – | tissue uptake | 10 ± 2 %ID/g
CCCCCCCCCCCCC/C=C/[C@@H](O)[C@H](CO)NC(=O)CCCCCCCCCCCCCCCCC | Protein SET (SET, Homo sapiens, UniProt Q01105) | lipid binding, GFP pull-down LC-MS/MS | A549 overexpressing GFP-tagged protein | ER-targeted construct | relative to: eluate plus flow-through | lipid fraction bound | 34.4%
CC[C@@H]1[C@H](F)C(=O)N[C@@H]1COc1nccc2cc(C(N)=O)c(OC)cc12 | Serine/threonine-protein kinase tousled-like 1 (TLK1, Homo sapiens, UniProt Q9UKI8) | ATP-site probe binding, ActivX profiling | THP-1 cell lysate | 0.04 mM, Lys1 site | – | inhibition | 21.8%
O=c1c(Oc2ccccc2)c(C(F)(F)F)oc2cc(O)ccc12 | Cullin-1, C-terminal domain with ROC1 (Homo sapiens, UniProt Q13616) | inhibitor | – | up to 80 µM | – | E3 ligase activity | no inhibition
CC(C)[C@H](NC(=O)[C@@H](NC(=O)CCCc1cn(CC(O)CN2CCN(CC(=O)O)CCN(CC(=O)O)CCN(CC(=O)O)CC2)nn1)[C@@H](C)O)C(=O)N[C@@H](CCCNC(=N)N)C(=O)N[C@H](C(=O)N[C@@H](CO)C(=O)N[C@@H](C)C(=O)N[C@@H](CC(=O)O)C(=O)O)[C@@H](C)O (stereo partly drawn) | – | – | healthy male humans, plasma | intravenous bolus, 0.08 mmol/kg | – | tmax | 8.4 ± 7.8 min
Cc1cnn2ncc(-c3ccnc(N(C)C)n3)c2c1 | Tyrosine-protein kinase ABL1 (ABL1, Homo sapiens, UniProt P00519, H396P) | KINOMEscan | – | 1 µM | – | remaining binding | 97%
CC1=C[C@H](O)CC(C)(C)[C@H]1/C=C/C(C)=C/C=C/C(C)=C/C=C/C=C(C)/C=C/C=C(C)/C=C/C1=C(C)C[C@@H](O)CC1(C)C | Beta-lactoglobulin (LGB, Bos taurus, UniProt P02754) | fluorescence quenching | – | concentration not given, 303 K | – | number of binding sites | 1.33
CC(C)C[C@H](NC(=O)C[C@H](O)[C@H](CC(C)C)NC(=O)[C@H](Cc1c[nH]cn1)NC(=O)CNC(=O)[C@@H](NC(=O)[C@H](C)NC(=O)[C@H](Cc1c[nH]c2ccccc12)NC(=O)[C@H](CCC(N)=O)NC(=O)[C@@H](Cc1ccccc1)NC(=O)COCCOCCNC(=O)CCC(C(=O)O)N1CCN(CC(=O)O)CCN(CC(=O)O)CCN(CC(=O)O)CC1)C(C)C)C(N)=O (stereo partly drawn) [lutetium-177 labelled] | – | – | BALB/c nu/nu mice, pancreas | intravenous, 500 pmol, 1 h, with: PA 300 µg | – | tissue uptake | 3.2 ± 0.7 %ID/g
COc1cc(-c2cncc3c2CN(C)Cc2cc(N4CCNCC4)ccc2-3)cc(OC)c1OC | 5'-AMP-activated protein kinase catalytic subunit alpha-2 (PRKAA2, Homo sapiens, UniProt P54646) | kinase activity | – | 1 µM, human enzyme, with: ATP 10 µM | relative to: DMSO control | remaining activity | 114%
CCOC(=O)C(C)c1n[nH]c2nc(N)[nH]c(=O)c2c1=O (stereo not drawn) | Dihydropteroate synthase (folP, Bacteria, UniProt P0AC13) | CETSA HiBiT | Escherichia coli, cell lysate | concentration not given | relative to: DMSO | melting temperature shift | 12.3 °C
CC[C@H](C)[C@H](NC(=O)[C@H](CCCNC(=N)N)NC(=O)[C@H](Cc1c[nH]cn1)NC(=O)[C@H](CCCNC(=N)N)NC(=O)[C@H](CC(=O)O)NC(=O)[C@H](CC(=O)O)NC(=O)[C@@H](NC(=O)[C@H](CC(=O)O)NC(=O)[C@@H]1CCCN1C(=O)[C@@H](N)CC(C)C)[C@@H](C)O)C(=O)N[C@@H](CCC(=O)O)C(=O)N[C@@H](CCC(=O)O)C(=O)N[C@@H](CCCCN)C(=O)N[C@@H](CCCNC(=N)N)C(=O)N[C@@H](CCCCN)C(=O)N[C@@H](CCCNC(=N)N)C(=O)N[C@H](C(=O)N[C@@H](C)C(=O)N[C@@H](CCC(=O)O)C(=O)N[C@H](C(=O)N[C@@H](Cc1ccccc1)C(=O)N[C@@H](CCCCN)C(=O)N[C@@H](CO)C(=O)N[C@H](C(=O)N[C@@H](CCSC)C(=O)N[C@@H](CCCCN)C(=O)N[C@@H](CCCCN)C(=O)N[C@@H](CO)C(=O)N1CCC[C@H]1C(=O)N[C@@H](Cc1ccccc1)C(=O)N[C@@H](CC(N)=O)C(=O)NCC(=O)N1CCC[C@H]1C(=O)O)[C@@H](C)CC)[C@@H](C)O)[C@@H](C)O | NF-kappa-B inhibitor alpha (Homo sapiens, UniProt P25963) | binding, ITC | – | pH 7.5, 293 K, 50 mM NaCl | – | ΔG | -7.5 ± 0.1 kcal/mol
O=C(C#Cc1ccc(F)c(F)c1)c1ccccc1Cl | mvfR (Pseudomonas aeruginosa, UniProt Q9I4X0) | receptor binding | – | concentration not given, 1.5 h, with: PQS at 1:1 ratio | relative to: control | binding | 90%
OC(CCN1CCCCC1)(c1ccccc1)C1CC2C=CC1C2 (stereo not drawn) | – | resting-state EEG | healthy elderly humans | oral, 2 mg, eyes closed, LS mean | relative to: baseline | change in EEG Beta2-power Pz-O2 | -7.4%
N#Cc1ccc(C[C@@H](Nc2nnc(-c3ccc(F)cc3)o2)C(=O)N2CCc3ccccc32)cc1 | N-formyl peptide receptor 2 (FPR2, Homo sapiens, UniProt P25090) | cell-based | – | concentration not given | – | activity | inactive
O=C(O)CC1Oc2ccccc2NC1=O (stereo not drawn) | HDAC6 ZnF-UBD domain | – | – | – | – | Kd | > 1000 µM
Nc1ncnc2c1ncn2[C@@H]1O[C@H](COP(=O)(O)CP(=O)(O)OP(=O)(O)O)[C@@H](O)[C@H]1O | P2X purinoceptor 1 (P2RX1, Homo sapiens, UniProt P51575, R139P) | calcium influx | – | 3.16 nM | relative to: ionomycin response | calcium influx | 0%
CCC1(O)CCCN(C(=O)c2ccc(-c3ccc(F)c(NC(=O)CCl)c3)cc2)C1 (stereo not drawn) | DNA dC->dU-editing enzyme APOBEC-3B, C-terminal domain (Homo sapiens, UniProt Q9UH17) | covalent modifier, intact protein mass spectrometry, measured: adduct +26104 Da | – | 25 µM, 1 h, 1-fold molar excess | – | protein adduct | 0%

Excerpt of the above:
Compound | tested on | test | system | conditions | scale | measurement | result
CCOC(=O)C(C)c1n[nH]c2nc(N)[nH]c(=O)c2c1=O (stereo not drawn) | Dihydropteroate synthase (folP, Bacteria, UniProt P0AC13) | CETSA HiBiT | Escherichia coli, cell lysate | concentration not given | relative to: DMSO | melting temperature shift | 12.3 °C
CC[C@H](C)[C@H](NC(=O)[C@H](CCCNC(=N)N)NC(=O)[C@H](Cc1c[nH]cn1)NC(=O)[C@H](CCCNC(=N)N)NC(=O)[C@H](CC(=O)O)NC(=O)[C@H](CC(=O)O)NC(=O)[C@@H](NC(=O)[C@H](CC(=O)O)NC(=O)[C@@H]1CCCN1C(=O)[C@@H](N)CC(C)C)[C@@H](C)O)C(=O)N[C@@H](CCC(=O)O)C(=O)N[C@@H](CCC(=O)O)C(=O)N[C@@H](CCCCN)C(=O)N[C@@H](CCCNC(=N)N)C(=O)N[C@@H](CCCCN)C(=O)N[C@@H](CCCNC(=N)N)C(=O)N[C@H](C(=O)N[C@@H](C)C(=O)N[C@@H](CCC(=O)O)C(=O)N[C@H](C(=O)N[C@@H](Cc1ccccc1)C(=O)N[C@@H](CCCCN)C(=O)N[C@@H](CO)C(=O)N[C@H](C(=O)N[C@@H](CCSC)C(=O)N[C@@H](CCCCN)C(=O)N[C@@H](CCCCN)C(=O)N[C@@H](CO)C(=O)N1CCC[C@H]1C(=O)N[C@@H](Cc1ccccc1)C(=O)N[C@@H](CC(N)=O)C(=O)NCC(=O)N1CCC[C@H]1C(=O)O)[C@@H](C)CC)[C@@H](C)O)[C@@H](C)O | NF-kappa-B inhibitor alpha (Homo sapiens, UniProt P25963) | binding, ITC | – | pH 7.5, 293 K, 50 mM NaCl | – | ΔG | -7.5 ± 0.1 kcal/mol
